{"data": "Results pooled from the literature", "ache": "Acetylcholinesterase (ache, Electrophorus electricus, UniProt O42275)", "note": "Protocols differ between the studies behind these lines. Several values in a cell are separate wells, animals, samples, runs or records.", "chain of UniProt O42275 (whole entry, looked up)": "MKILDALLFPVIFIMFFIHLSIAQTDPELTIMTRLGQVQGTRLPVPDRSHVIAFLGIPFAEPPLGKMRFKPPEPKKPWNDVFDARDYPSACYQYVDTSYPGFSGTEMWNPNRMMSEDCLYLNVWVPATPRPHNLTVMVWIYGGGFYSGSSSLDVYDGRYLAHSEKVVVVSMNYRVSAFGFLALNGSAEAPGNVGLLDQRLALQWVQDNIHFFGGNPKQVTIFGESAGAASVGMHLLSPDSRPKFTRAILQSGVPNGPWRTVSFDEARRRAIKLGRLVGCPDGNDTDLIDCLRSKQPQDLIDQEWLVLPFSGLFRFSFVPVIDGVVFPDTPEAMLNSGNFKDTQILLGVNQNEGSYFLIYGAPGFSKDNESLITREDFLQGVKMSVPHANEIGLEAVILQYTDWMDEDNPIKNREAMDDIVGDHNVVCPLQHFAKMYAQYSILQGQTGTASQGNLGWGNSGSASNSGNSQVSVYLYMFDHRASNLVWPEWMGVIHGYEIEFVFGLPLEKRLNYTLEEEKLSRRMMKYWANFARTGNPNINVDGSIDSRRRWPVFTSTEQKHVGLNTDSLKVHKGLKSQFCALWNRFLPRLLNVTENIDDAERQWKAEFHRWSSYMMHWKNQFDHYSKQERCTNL", "chain of UniProt P27338 (whole entry, looked up)": "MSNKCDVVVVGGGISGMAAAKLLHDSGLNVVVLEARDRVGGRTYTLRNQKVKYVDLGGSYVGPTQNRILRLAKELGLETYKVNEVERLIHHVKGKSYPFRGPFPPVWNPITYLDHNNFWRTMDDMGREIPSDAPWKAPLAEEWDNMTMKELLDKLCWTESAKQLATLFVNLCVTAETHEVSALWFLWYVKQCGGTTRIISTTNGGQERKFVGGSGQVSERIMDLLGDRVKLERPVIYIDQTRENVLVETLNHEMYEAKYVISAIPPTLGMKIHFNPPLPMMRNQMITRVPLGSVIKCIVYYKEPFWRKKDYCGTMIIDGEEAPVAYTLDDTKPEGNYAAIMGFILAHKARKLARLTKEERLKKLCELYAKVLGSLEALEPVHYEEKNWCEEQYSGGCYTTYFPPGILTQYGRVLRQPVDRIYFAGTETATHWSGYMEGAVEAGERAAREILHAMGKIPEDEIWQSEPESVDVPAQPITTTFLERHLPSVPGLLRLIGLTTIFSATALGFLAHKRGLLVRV", "chain of UniProt Q9BTU6 (whole entry, looked up)": "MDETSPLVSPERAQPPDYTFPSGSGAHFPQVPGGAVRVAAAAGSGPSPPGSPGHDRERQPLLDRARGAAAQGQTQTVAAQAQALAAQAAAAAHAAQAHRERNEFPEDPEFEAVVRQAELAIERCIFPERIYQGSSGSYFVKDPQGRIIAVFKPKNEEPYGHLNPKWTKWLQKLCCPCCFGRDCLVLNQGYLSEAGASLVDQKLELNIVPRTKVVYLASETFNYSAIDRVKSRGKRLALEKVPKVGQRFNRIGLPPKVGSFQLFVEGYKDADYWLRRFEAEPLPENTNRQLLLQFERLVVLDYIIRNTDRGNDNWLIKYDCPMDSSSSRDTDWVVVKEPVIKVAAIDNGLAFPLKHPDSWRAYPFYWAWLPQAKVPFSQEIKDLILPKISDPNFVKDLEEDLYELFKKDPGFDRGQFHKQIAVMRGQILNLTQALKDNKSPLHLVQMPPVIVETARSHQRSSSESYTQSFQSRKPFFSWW", "chain of UniProt P23975 (whole entry, looked up)": "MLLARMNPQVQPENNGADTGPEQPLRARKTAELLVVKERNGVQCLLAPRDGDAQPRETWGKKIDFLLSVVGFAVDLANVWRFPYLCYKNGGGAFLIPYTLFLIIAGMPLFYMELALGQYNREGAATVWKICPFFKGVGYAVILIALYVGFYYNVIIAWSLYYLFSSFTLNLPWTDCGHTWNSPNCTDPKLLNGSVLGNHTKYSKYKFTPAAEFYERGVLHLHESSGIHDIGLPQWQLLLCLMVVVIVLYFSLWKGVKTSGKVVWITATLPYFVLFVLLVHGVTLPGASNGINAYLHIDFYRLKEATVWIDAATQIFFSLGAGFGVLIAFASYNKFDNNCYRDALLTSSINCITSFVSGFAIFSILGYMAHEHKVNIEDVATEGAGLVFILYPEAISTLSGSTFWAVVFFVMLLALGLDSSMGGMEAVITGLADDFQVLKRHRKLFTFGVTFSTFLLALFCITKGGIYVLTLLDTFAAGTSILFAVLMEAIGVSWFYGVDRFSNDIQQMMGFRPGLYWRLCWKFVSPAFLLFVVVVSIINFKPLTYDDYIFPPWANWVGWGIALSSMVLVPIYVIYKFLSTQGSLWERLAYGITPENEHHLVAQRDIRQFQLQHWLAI", "chain of UniProt O13828 (whole entry, looked up)": "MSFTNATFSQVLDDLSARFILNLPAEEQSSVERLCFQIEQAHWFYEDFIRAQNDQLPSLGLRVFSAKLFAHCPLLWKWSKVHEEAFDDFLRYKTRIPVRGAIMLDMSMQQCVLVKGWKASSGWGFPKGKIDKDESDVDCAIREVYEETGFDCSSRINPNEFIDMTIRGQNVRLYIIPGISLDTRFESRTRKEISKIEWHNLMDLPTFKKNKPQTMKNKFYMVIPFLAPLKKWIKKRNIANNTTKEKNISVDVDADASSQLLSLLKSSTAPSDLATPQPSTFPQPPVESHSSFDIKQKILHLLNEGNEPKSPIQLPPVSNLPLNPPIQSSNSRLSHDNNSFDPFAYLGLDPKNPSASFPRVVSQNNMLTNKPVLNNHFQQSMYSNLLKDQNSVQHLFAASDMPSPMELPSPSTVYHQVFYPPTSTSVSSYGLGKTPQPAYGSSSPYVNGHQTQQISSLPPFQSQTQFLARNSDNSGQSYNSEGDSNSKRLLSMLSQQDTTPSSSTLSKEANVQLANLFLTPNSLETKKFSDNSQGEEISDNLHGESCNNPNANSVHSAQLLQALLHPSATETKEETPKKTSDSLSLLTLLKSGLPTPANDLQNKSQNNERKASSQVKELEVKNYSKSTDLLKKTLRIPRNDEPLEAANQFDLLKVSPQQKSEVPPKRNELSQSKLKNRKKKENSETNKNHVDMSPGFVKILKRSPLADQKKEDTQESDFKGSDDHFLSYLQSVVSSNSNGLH", "chain of UniProt Q9UBS5 (whole entry, looked up)": "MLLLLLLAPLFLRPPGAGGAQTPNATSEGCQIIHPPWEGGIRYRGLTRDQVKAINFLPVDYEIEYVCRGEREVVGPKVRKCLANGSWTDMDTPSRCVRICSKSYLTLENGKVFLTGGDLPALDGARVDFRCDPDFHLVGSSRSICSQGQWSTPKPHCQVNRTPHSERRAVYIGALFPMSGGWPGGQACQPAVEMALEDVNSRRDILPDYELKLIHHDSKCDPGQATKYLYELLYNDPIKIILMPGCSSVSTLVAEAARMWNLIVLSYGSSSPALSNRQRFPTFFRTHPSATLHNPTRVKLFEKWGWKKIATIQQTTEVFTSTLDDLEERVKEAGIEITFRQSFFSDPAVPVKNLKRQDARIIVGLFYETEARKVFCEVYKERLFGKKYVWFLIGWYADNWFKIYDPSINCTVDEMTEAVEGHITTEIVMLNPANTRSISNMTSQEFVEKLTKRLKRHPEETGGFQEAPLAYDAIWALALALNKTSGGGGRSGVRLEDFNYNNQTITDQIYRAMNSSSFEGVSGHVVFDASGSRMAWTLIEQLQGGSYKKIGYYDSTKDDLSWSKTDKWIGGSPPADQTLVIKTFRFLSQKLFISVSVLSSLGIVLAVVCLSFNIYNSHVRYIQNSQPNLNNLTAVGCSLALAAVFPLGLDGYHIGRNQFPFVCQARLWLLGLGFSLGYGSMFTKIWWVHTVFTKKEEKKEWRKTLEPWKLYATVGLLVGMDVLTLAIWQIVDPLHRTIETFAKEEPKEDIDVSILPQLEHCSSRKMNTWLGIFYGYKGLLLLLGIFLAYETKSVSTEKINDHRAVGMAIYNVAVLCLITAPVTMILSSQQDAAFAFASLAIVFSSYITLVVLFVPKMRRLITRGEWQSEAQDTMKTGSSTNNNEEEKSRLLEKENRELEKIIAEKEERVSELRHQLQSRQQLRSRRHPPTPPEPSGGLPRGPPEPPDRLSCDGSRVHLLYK", "chain of UniProt Q99640 (whole entry, looked up)": "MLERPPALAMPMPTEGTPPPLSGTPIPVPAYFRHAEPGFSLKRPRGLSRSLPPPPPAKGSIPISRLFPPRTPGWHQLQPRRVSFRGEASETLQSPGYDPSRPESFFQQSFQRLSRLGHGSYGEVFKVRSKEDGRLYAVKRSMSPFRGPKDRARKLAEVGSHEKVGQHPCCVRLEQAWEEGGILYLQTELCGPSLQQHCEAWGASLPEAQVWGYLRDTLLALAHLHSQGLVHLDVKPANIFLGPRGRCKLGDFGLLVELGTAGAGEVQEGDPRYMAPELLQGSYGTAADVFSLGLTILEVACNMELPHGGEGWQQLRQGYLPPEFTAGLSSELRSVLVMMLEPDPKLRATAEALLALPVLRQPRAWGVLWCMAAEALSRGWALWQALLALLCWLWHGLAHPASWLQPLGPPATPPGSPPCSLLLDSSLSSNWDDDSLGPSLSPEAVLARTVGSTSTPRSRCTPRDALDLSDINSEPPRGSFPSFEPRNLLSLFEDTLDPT"}
{"SMILES": "O=C(NC1CCN(c2ncnc3[nH]cnc23)CC1)c1cccc(NS(=O)(=O)c2ccc(C(F)(F)F)cc2)c1", "target": "Replicase polyprotein 1ab, nsp14 (Human coronavirus OC43, UniProt P0C6X6)", "test": "enzyme activity", "setting": "3.125 µM", "inhibition": "57.3%"}
{"SMILES": "CN[C@@H]1[C@H](O)[C@H](NC)[C@H]2O[C@]3(O)[C@H](O[C@@H]2[C@H]1O)O[C@H](C)C[C@H]3NC(=O)Cc1cc(Cl)ccn1", "target": "SLC6A2 (Homo sapiens, UniProt P23975)", "test": "ligand displacement, radioligand", "setting": "10 µM", "inhibition": "-1%"}
{"SMILES": "CN(/N=C/c1ccccc1C(=O)O)c1nc(-c2ccccc2Cl)cs1", "target": "NPM1-ALK fusion kinase", "test": "kinase activity, inhibitor", "setting": "1 µM", "inhibition": "22.2% and 24.8%"}
{"SMILES": "C1CCNC1", "target": "ache", "test": "enzyme activity, inhibitor, Ellman", "setting": "20 µM", "inhibition": "36.6%"}
{"SMILES": "C[n+]1cn([C@@H]2O[C@H](COP(=O)([O-])NP(=O)(O)O)[C@@H](O)[C@H]2O)c2nc(N)nc(O)c21", "target": "mRNA decapping complex subunit 2, with Dcp1 (dcp2, Schizosaccharomyces pombe, UniProt O13828)", "setting": "200 µM, 0.5 h", "inhibition": "26.1%"}
{"SMILES": "CN(C)[C@H]1C[C@@]23CC[C@@]4(O2)C(=CC[C@]2(C)[C@@H](c5ccc6ccncc6c5)CC[C@H]24)C=C3[C@@H](O)[C@@H]1O", "target": "PI4K2A (Homo sapiens, UniProt Q9BTU6)", "test": "ATP probe labelling, inhibitor, KiNativ profiling", "setting": "1 µM", "inhibition": "9.6%"}
{"SMILES": "CS(C)(=O)=Nc1ccc(-c2ccc(-c3nc4cc(O[C@@H]5CO[C@H]6[C@@H]5OC[C@H]6O)[nH]c4cc3F)cc2)cc1", "target": "GABBR1 (Homo sapiens, UniProt Q9UBS5)", "test": "agonist response, antagonist", "setting": "10 µM", "scale": "reference: control agonist response", "inhibition": "38%"}
{"SMILES": "CCCCN(C)c1c(C)nc2ccc(C(=O)N3CCC[C@@H](C(N)=O)C3)cn12", "target": "ache", "test": "enzyme activity, inhibitor, Ellman", "setting": "5 µM", "inhibition": "69%"}
{"SMILES": "CC(C)[C@H]1NC(=O)C[C@H]2/C=C/CCSSC[C@@H](NC1=O)C(=O)N[C@H](Cc1cccc3ccccc13)C(=O)NCC(=O)O2", "target": "SRC (Homo sapiens, UniProt P12931)", "test": "enzyme activity, inhibitor", "setting": "10 µM", "inhibition": "3.4%"}
{"SMILES": "O=C(CN1CN(c2ccccc2)C2(CCN(C(=O)c3cnc4[nH]ncc4c3)CC2)C1=O)NCC(F)(F)F", "target": "PKMYT1 (Homo sapiens, UniProt Q99640)", "test": "inhibitor", "setting": "concentration not given", "inhibition": "< 50%"}
{"SMILES": "C[Si](C)(C)C#N", "target": "PDE6D (Homo sapiens, UniProt O43924)", "test": "enzyme activity, inhibitor", "setting": "5 µM", "inhibition": "21.3%"}
{"SMILES": "C[C@H](NCc1ccc(-c2ccc(C(F)(F)F)cc2)cc1)C(N)=O", "target": "MAOB (Homo sapiens, UniProt P27338)", "test": "enzyme activity, SafetyScreen panel", "setting": "1 µM, with: 50.0 µM kynuramine", "inhibition": "99%"}
{"note": "For quick reference, copied from above:"}
{"SMILES": "CN(/N=C/c1ccccc1C(=O)O)c1nc(-c2ccccc2Cl)cs1", "target": "NPM1-ALK fusion kinase", "test": "kinase activity, inhibitor", "setting": "1 µM", "inhibition": "22.2% and 24.8%"}
{"SMILES": "O=C(NC1CCN(c2ncnc3[nH]cnc23)CC1)c1cccc(NS(=O)(=O)c2ccc(C(F)(F)F)cc2)c1", "target": "Replicase polyprotein 1ab, nsp14 (Human coronavirus OC43, UniProt P0C6X6)", "test": "enzyme activity", "setting": "3.125 µM", "inhibition": "57.3%"}
